Measurements from different studies.
Compare with care: the assays were run in different laboratories.
Target: Cannabinoid receptor 1 (CNR1, Homo sapiens, UniProt P21554)
Sequence of UniProt P21554 (whole entry, looked up): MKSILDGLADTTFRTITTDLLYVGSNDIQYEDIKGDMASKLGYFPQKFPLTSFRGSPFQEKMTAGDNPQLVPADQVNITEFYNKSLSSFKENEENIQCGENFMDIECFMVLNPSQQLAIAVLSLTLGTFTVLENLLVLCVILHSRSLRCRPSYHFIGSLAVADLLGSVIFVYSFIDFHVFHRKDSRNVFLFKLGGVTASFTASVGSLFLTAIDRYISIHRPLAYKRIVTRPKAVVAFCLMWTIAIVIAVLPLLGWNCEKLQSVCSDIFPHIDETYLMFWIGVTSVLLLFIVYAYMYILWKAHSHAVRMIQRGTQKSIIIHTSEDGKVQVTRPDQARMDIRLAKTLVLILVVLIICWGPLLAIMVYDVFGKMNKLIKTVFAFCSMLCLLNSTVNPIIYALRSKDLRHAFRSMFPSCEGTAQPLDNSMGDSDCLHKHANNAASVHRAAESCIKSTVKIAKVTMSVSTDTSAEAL

For `CCOC(=O)C(CC)(CCCSCCCCCCNc1ccc([N+](=O)[O-])c2nonc12)NC(=O)c1ccc(C2CC2)c(Cc2ccc(F)cc2)n1` (stereo not drawn), the Emax was 122% (cAMP, agonist).
With `COCC(=O)N1CCc2cc(-c3csc(NC(=O)c4cc(OC)cc(OC)c4)n3)ccc21` the inhibition was 8% (cell-free assay; 10 µM).
For `O=C1c2sc(-c3ccc(N4CCC(F)C4)nc3F)nc2CCN1c1cccnc1` (stereo not drawn), the inhibition was -5% (ligand displacement, radioligand; 1 µM).
`COc1ccc(C#CC2=C[C@H]3C[C@@]4(OC(=O)C=C24)[C@H]2CC[C@H](C(OC)OC)N32)cc1` has an inhibition of 13% (ligand displacement, radioligand; 10 µM).
The Emax of `CCOC(=O)[C@](CC)(CCCSCCOCCOCCN)NC(=O)c1ccc(C2CC2)c(Cc2ccc(F)cc2)n1` is reported as 84% (cAMP, agonist).
The inhibition of `Cc1[nH]nc2c1N=C(c1ccccc1Cl)c1cnc(N3CCOCC3)cc1N2` is reported as 41% (cell-free assay; 10 µM).
For `COc1ncc2nc(C)n(Cc3ncc(S(N)(=O)=O)cc3F)c2c1-c1ccccc1`, the activation was 1.96% (agonist, cell-based; 10 µM).
`C[Si](C)(C)C[C@@H](CN)CC(=O)O` gave an inhibition of 9% (ligand displacement, radioligand; 75 µM).
`Cn1ccc2cc(-n3c(=O)[nH]c4sc5c(c4c3=O)CCCC5)ccc21` gave an inhibition of 12% (cell-free assay, radioligand; 10 µM).
`CNC(=O)C[C@H](Cc1ccc(C#N)cc1)NC(=O)c1cc(-c2ccc(CN[C@H](C)c3ccc(C)cc3)o2)ccc1Cl` gave an inhibition of 2% (agonist response, antagonist; human cells; 10 µM, CB1 antagonist).
`CCOC(=O)C(CC)(CCCSCCOCCN)NC(=O)c1ccc(C2CC2)c(Cc2ccc(F)cc2)n1` (stereo not drawn) has an Emax of 52% (cAMP, agonist).
`CO[C@@H](C)c1c(NC(=O)Nc2cnc(-n3nccn3)c(C(F)(F)F)c2)cnc2sc(C)nc12` has an inhibition of -9.5% (ligand displacement, radioligand; 10 µM).
The Emax of `CCOC(=O)C(CC)(CCCSCCOCCOCCOCCN)NC(=O)c1ccc(C2CC2)c(Cc2ccc(F)cc2)n1` (stereo not drawn) is reported as 72% (cAMP, agonist).
The inhibition of `COc1ccc(S(=O)(=O)N2CCc3ccccc3C2)cc1N1CCN(C(=O)c2ccc(F)cc2C(F)(F)F)CC1` is reported as 19.4% (ligand displacement, radioligand; 1 µM).
For `C[Si]1(C[C@H](CN)CC(=O)O)CCCC1`, the inhibition was -6% (ligand displacement, radioligand; 70 µM).

Some of these lines once more:
The inhibition of `Cc1[nH]nc2c1N=C(c1ccccc1Cl)c1cnc(N3CCOCC3)cc1N2` is reported as 41% (cell-free assay; 10 µM).
